Measurements gathered from unrelated publications.
Compare with care: the assays were run in different laboratories. ± gives the spread as reported.
HTR2A: 5-hydroxytryptamine receptor 2A (HTR2A, Homo sapiens, UniProt P28223)
Sequence of UniProt P28223 (whole entry, looked up): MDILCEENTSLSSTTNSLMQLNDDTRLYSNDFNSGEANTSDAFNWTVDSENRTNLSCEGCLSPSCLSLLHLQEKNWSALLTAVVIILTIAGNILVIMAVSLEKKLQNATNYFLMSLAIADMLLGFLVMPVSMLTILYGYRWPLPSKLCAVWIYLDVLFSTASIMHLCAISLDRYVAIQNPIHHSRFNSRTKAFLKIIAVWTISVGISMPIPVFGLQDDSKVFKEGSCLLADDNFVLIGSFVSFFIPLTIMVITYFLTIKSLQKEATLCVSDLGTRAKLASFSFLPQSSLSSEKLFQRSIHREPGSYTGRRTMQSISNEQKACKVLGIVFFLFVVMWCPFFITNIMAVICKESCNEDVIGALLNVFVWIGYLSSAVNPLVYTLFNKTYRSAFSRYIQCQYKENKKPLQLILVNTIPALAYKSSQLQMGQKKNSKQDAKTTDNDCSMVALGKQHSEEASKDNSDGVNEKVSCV
histidine kinase ComD: histidine kinase ComD (Streptococcus pneumoniae serotype 2, UniProt A0A0H2ZM50)
Sequence of UniProt P54292 (whole entry, looked up): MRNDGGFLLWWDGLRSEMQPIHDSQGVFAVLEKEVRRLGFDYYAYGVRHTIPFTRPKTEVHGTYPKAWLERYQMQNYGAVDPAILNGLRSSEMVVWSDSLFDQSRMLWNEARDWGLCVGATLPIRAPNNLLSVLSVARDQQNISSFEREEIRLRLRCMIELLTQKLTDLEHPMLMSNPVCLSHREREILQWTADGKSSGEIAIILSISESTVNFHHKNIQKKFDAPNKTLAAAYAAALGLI
Sequence of UniProt P21279 (whole entry, unmodified, looked up): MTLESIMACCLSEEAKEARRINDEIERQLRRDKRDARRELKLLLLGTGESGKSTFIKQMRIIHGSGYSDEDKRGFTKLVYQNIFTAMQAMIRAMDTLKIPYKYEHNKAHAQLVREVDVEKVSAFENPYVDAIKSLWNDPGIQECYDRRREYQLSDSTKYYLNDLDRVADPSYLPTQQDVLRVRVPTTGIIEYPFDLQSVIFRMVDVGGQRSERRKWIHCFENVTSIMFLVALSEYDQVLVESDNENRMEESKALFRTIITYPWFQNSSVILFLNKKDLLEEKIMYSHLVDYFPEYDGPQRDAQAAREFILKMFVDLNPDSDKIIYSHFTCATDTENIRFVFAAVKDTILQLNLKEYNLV
Sequence of UniProt P22307 (whole entry, looked up): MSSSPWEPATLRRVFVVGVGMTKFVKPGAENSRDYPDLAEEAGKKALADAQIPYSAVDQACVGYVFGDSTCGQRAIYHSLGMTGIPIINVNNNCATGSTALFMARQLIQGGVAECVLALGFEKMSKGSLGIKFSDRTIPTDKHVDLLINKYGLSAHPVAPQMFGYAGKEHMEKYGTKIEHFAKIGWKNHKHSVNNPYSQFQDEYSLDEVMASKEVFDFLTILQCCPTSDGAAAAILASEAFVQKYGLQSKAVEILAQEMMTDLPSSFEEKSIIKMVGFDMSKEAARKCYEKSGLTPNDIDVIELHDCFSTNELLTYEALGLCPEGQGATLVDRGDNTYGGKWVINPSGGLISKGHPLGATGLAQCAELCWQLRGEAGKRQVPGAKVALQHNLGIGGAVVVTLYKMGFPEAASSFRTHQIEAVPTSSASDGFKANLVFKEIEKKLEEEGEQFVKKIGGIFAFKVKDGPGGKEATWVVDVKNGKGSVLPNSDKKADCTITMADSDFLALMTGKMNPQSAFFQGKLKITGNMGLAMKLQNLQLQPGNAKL
Sequence of UniProt P28335 (whole entry, looked up): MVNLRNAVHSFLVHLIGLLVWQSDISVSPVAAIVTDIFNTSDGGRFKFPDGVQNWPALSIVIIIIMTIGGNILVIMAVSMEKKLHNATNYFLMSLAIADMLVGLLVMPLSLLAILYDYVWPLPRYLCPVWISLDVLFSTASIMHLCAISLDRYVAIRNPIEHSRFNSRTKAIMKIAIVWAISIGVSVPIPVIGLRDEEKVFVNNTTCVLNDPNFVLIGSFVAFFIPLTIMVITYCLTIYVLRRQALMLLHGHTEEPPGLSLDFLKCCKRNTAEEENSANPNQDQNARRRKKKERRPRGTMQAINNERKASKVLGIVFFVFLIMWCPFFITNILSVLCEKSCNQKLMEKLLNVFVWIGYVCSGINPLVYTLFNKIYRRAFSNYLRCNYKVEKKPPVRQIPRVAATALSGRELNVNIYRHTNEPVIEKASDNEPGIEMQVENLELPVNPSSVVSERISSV
Sequence of UniProt Q63371 (whole entry, looked up): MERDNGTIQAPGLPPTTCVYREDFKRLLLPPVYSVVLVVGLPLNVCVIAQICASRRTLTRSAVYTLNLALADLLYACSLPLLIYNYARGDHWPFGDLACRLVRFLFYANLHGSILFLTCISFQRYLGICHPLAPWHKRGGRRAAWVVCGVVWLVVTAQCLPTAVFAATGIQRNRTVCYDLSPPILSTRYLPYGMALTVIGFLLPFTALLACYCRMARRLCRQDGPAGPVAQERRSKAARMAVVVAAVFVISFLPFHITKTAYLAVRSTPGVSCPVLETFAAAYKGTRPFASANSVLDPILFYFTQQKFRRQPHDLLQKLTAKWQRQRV
Sequence of UniProt Q9GZN0 (whole entry, looked up): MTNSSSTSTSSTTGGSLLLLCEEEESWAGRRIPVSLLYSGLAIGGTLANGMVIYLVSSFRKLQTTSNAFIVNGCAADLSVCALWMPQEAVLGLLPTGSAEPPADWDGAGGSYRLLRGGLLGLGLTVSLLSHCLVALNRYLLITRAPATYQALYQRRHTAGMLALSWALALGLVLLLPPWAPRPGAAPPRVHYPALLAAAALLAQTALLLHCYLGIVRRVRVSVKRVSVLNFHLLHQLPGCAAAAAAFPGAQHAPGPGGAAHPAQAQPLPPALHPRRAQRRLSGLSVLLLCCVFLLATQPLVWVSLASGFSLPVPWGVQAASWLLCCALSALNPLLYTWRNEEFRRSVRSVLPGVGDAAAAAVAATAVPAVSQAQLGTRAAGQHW
Sequence of UniProt O75762 (whole entry, looked up): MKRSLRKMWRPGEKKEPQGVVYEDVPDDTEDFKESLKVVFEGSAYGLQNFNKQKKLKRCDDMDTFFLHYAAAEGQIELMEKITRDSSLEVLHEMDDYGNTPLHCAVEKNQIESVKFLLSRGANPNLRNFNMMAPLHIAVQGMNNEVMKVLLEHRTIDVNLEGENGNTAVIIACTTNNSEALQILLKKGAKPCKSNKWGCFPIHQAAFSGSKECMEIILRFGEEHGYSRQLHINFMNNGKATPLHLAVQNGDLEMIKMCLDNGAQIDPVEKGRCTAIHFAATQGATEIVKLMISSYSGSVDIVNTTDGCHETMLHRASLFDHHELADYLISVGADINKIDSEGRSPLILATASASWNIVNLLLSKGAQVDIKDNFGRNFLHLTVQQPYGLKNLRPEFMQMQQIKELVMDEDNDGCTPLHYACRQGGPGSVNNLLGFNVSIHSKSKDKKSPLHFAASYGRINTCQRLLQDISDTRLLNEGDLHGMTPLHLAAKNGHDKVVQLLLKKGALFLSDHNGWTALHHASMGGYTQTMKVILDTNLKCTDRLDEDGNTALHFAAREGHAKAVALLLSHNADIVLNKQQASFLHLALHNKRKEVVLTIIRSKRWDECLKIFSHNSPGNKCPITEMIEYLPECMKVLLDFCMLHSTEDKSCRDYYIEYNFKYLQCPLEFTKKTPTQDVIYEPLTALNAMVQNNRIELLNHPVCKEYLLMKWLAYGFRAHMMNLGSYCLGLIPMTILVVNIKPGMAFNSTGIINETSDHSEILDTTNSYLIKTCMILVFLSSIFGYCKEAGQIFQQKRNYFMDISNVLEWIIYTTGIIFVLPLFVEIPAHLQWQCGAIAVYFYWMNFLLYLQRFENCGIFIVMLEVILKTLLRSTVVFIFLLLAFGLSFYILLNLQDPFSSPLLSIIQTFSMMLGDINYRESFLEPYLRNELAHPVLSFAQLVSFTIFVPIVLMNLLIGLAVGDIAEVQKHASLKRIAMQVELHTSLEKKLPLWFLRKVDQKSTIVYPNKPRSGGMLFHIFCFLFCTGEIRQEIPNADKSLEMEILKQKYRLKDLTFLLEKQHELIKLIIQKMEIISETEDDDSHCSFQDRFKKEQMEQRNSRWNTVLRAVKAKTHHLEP
Sequence of UniProt P18825 (whole entry, looked up): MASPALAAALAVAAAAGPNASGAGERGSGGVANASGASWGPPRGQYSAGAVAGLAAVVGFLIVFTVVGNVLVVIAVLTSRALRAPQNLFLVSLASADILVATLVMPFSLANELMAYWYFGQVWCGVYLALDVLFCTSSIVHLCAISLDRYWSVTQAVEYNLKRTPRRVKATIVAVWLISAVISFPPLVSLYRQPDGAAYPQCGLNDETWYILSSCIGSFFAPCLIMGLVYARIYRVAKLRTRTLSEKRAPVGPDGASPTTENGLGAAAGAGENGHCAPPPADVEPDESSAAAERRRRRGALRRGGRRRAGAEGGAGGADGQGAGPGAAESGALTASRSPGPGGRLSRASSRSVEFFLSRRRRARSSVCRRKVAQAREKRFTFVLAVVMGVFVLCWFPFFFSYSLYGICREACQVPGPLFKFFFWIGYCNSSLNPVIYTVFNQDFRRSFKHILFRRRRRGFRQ
Sequence of UniProt Q9Y5Z9 (whole entry, unmodified, looked up): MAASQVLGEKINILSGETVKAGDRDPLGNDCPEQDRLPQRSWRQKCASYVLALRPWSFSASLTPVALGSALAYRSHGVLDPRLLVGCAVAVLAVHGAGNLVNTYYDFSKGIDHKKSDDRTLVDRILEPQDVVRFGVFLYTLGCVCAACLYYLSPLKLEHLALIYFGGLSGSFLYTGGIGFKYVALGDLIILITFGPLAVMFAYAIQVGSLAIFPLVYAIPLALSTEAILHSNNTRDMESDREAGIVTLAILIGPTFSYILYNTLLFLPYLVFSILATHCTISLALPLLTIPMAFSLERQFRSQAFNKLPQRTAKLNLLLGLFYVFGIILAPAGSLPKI

CCCN(CCC)CCc1c[nH]c2ccccc12
EC50 (HTR2A; β-arrestin recruitment, agonist): 1690 nM

C=C1C(=O)N[C@@H](C)C(=O)N(C)[C@@H](C)C(=O)N[C@@H]([C@H](OC(=O)[C@@H](NC(=O)CC)[C@H](O)C(C)C)C(C)C)C(=O)N(C)[C@@H]([C@@H](C)OC)C(=O)O[C@H](C(C)C)[C@H](NC(C)=O)C(=O)O[C@H](Cc2ccccc2)C(=O)N1C
EC50 (Gnaq, with Gβ1γ2 (Mus musculus, UniProt P21279, Q209L); Gβ1γ2–Gαq association, split-luciferase complementation; HEK293; 18 h, constitutively active Gαq Q209L): 9 nM

CC(C)Oc1ccccc1-n1c(CN2CCN(C(=O)COc3ccc(Cl)cc3)CC2)nc2ccccc2c1=O
EC50 (Slc7a11 (Rattus norvegicus, UniProt A0A8I6AB70); glutamate release, inhibitor; rat primary microglia; 24 h, added: LPS 1 µg/mL): 160 ± 20 nM

C[C@@H]1CN(c2c(F)c(F)c3c(=O)c(C(=O)O)cn(C4CC4)c3c2F)C[C@H](C)N1
EC50 (Androgen receptor (AR, Homo sapiens, UniProt P10275); human cells; concentration not given): 26000 nM

CC1=CC(=O)c2ccccc2C1=O
EC50 (UbiA prenyltransferase domain-containing protein 1, C147S (UBIAD1, Homo sapiens, UniProt Q9Y5Z9); vitamin K-dependent carboxylation, measured: FIXgla-PC; FIXgla-PC reporter cells): 3.7 ± 0.6 nM

CCCN(CCC)CCc1c[nH]c2ccc(OC)cc12
EC50 (5-hydroxytryptamine receptor 1A (HTR1A, Homo sapiens, UniProt P08908); calcium signal, agonist): 476 nM

CC[C@H](C)[C@H](NC(=O)[C@H](Cc1ccccc1)NC(=O)[C@H](CC(=O)O)NC(=O)[C@H](CC(C)C)NC(=O)[C@@H](NC(=O)[C@@H](NC(=O)[C@H](CCCNC(=N)N)NC(=O)[C@H](CO)NC(=O)[C@@H](NC(=O)[C@H](CCCNC(=N)N)NC(=O)[C@H](CCSC)NC(=O)[C@@H](N)CCC(=O)O)[C@@H](C)CC)[C@@H](C)CC)[C@@H](C)CC)C(=O)N[C@@H](Cc1ccccc1)C(=O)N[C@@H](CCC(N)=O)C(=O)N[C@@H](CCCNC(=N)N)C(=O)O
EC50 (histidine kinase ComD; Streptococcus pneumoniae): > 1000 nM

CC(C)N(CCc1c[nH]c2ccccc12)C(C)C
EC50 (HTR2A; β-arrestin recruitment, agonist): > 10000 nM

c1cc2c3c(c1)c1c(n3CCNC2)CCCC1
EC50 (5-hydroxytryptamine receptor 2C (HTR2C, Homo sapiens, UniProt P28335); calcium signal, agonist): 451 nM

CNCCc1c[nH]c2ccc(OC)cc12
EC50 (HTR2A; calcium signal, agonist): 3.78 nM

C=CC(C)(C)c1[nH]c2cc(Br)ccc2c1CCNC
EC50 (Neuronal acetylcholine receptor; alpha4/beta2, (α4)3(β2)2 stoichiometry (Homo sapiens, UniProt P17787+P43681); ion current, potentiator, two-electrode voltage clamp; Xenopus oocytes; low-sensitivity α4β2 stoichiometry, added: 100 µM acetylcholine (EC75)): 630 ± 40.6 nM

CCCCC/C=C\C/C=C\C/C=C\C/C=C\CCCC(=O)NCCc1c[nH]c2ccc(O)cc12
EC50 (Sterol carrier protein 2 (Homo sapiens, UniProt P22307); NBDS displacement, fluorescent probe displacement; 50% of maximum displacement, added: NBDS 500 nM): 3330 ± 50 nM

CC[C@H](C)[C@H](N)CN(C(=O)[C@@H]1C[C@H]1c1ccccn1)c1ccc(-c2ccccc2)cc1 (relative stereo)
EC50 (G protein-coupled receptor 88 (Homo sapiens, UniProt Q9GZN0); cAMP, agonist, TR-FRET): 2760 nM

CC[C@H](C)[C@@H]1NC(=O)[C@H](CCCNC(=N)N)NC(=O)[C@H](CC(=O)O)NC(=O)[C@H](CC(C)C)NC(=O)[C@H](CCCCN)NC(=O)[C@H](CC(C)C)NC(=O)CNC(=O)[C@H](Cc2ccccc2)NC(=O)[C@@H](NC(=O)CNC(=O)[C@H](CCCCN)NC(=O)[C@H](CO)NC(=O)[C@H](CC(C)C)NC(=O)CNC(=O)[C@H](CCCCN)NC(=O)[C@H](CCCCN)NC(=O)[C@H](CC(N)=O)NC(=O)[C@H](C)NC(=O)CNC(=O)[C@H](CCCCN)NC(=O)[C@H](Cc2ccc(O)cc2)NC(=O)[C@H](CCCCN)NC(=O)[C@H](CCCNC(=N)N)NC(=O)[C@H](C)NC(=O)[C@H](CC(N)=O)NC(=O)[C@@H]2CCCN2C(=O)[C@H](Cc2c[nH]cn2)NC(=O)[C@H](CCC(=O)O)NC(=O)[C@H](CCC(N)=O)NC(=O)CNC(=O)[C@@H]2CCCN2)CSSC[C@@H](C(=O)O)NC(=O)CNC(=O)[C@H](CC(C)C)NC(=O)CNC(=O)[C@H](CO)NC(=O)[C@H](CCSC)NC(=O)[C@H](CO)NC(=O)CNC1=O
EC50 (NPR-B; urine cGMP/creatinine, Emax model on Cmax; human; 15 µg/kg): 5.02 ng/mL

CCCCCCCCCCC#CCCCCC(=O)O
EC50 (DNA topoisomerase IB (Leishmania donovani, UniProt A0A3Q8IHS4+Q8WQM6); DNA relaxation activity, inhibitor; 30 min, 37 °C): 71700 ± 3800 nM

CC1(Cc2ccccc2)COc2cc(C(=O)N3CCCCC3)ccc21 (stereo not shown)
EC50 (Cannabinoid receptor 1 (CNR1, Homo sapiens, UniProt P21554); GTPγS binding, agonist; cell membranes): > 10000 nM

C=CC=O
EC50 (Transient receptor potential cation channel subfamily A member 1 (TRPA1, Homo sapiens, UniProt O75762); calcium signal, agonist, fluorescence): 85000 nM

[BH3-][P+](O)(OP(=O)(O)OC[C@H]1O[C@@H](n2cnc3c(N)ncnc32)[C@H](O)[C@@H]1O)OP(=O)(O)OP(=O)(O)OC[C@H]1O[C@@H](n2cnc3c(N)ncnc32)[C@H](O)[C@@H]1O (stereo partly shown)
EC50 (P2Y purinoceptor 6 (Rattus norvegicus, UniProt Q63371); intracellular calcium rise, agonist; 1321-N1 transfected with rat P2Y6; 37 °C): > 100000 nM

C[C@]12CC(=O)[C@H]3[C@@H](CCC4=CC(=O)CC[C@@]43C)[C@@H]1CC[C@@H]2O
EC50 (Androgen receptor beta (Oryzias latipes, UniProt D1MV73); reporter gene, agonist; range minimum-maximum): 3.5 to 9.3 nM

CC[C@H](C)[C@H](NC(=O)[C@H](Cc1ccccc1)NC(=O)[C@H](CC(=O)O)NC(=O)[C@H](CC(C)C)NC(=O)[C@@H](NC(=O)[C@@H](NC(=O)[C@H](CCCNC(=N)N)NC(=O)[C@H](CO)NC(=O)[C@H](CC(C)C)NC(=O)[C@H](CCCNC(=N)N)NC(=O)[C@H](CCSC)NC(=O)[C@@H](N)CCC(=O)O)[C@@H](C)CC)[C@@H](C)CC)C(=O)N[C@@H](Cc1ccccc1)C(=O)N[C@@H](CC(C)C)C(=O)N[C@@H](CCCNC(=N)N)C(=O)O
EC50 (histidine kinase ComD; Streptococcus pneumoniae): > 1000 nM

CCCN(C/C=C/I)C1CCc2ccc(O)cc2C1 (stereo not shown)
EC50 (Alpha-2C adrenergic receptor (ADRA2C, Homo sapiens, UniProt P18825); G protein activation, agonist, BRET, measured: Gαi2; HEK293T, transfected; Emax below 50%): 10 ± 2 nM

CC[C@H](C)[C@H](NC(=O)[C@H](Cc1ccccc1)NC(=O)[C@H](CC(=O)O)NC(=O)[C@H](CC(C)C)NC(=O)[C@@H](NC(=O)[C@@H](NC(=O)[C@H](CCCNC(=N)N)NC(=O)[C@H](CO)NC(=O)[C@@H](NC(=O)[C@H](CCCNC(=N)N)NC(=O)[C@H](CCSC)NC(=O)[C@@H](N)CCC(=O)O)[C@@H](C)CC)[C@@H](C)CC)[C@@H](C)CC)C(=O)N[C@@H](CC(C)C)C(=O)N[C@@H](CC(C)C)C(=O)N[C@@H](CCCNC(=N)N)C(=O)O
EC50 (histidine kinase ComD; Streptococcus pneumoniae): > 1000 nM

CC(C)NCCc1c[nH]c2ccccc12
EC50 (HTR2A; calcium signal, agonist): 116 nM

CC(C)CC(=O)N[C@H]1CCOC1=O
EC50 (HTH-type quorum-sensing regulator RhlR (rhlR, Pseudomonas aeruginosa, UniProt P54292); reporter gene, agonist; Escherichia coli reporter strain): 1000 nM

CC[C@H](C)[C@H](NC(=O)[C@@H](N)CCC(=O)O)C(=O)N[C@@H](CCCNC(=N)N)C(=O)N[C@@H](CCC(N)=O)C(=O)N[C@H](C(=O)N[C@@H](Cc1c[nH]cn1)C(=O)N[C@@H](Cc1ccccc1)C(=O)N[C@@H](Cc1ccccc1)C(=O)N[C@@H](Cc1ccccc1)C(=O)N[C@@H](Cc1ccccc1)C(=O)N[C@@H](CC(N)=O)C(=O)N[C@@H](Cc1ccccc1)C(=O)N[C@@H](Cc1ccccc1)C(=O)N[C@@H](CCCCN)C(=O)N[C@@H](CCCNC(=N)N)C(=O)N[C@@H](CCCNC(=N)N)C(=O)O)[C@@H](C)O
EC50 (histidine kinase ComD; reporter gene, agonist; Streptococcus pneumoniae, D39 comX::lacZ; 30 min, pH 7.3, 37 °C): > 10000 nM

A few entries again:
C[C@@H]1CN(c2c(F)c(F)c3c(=O)c(C(=O)O)cn(C4CC4)c3c2F)C[C@H](C)N1
EC50 (Androgen receptor (AR, Homo sapiens, UniProt P10275); human cells; concentration not given): 26000 nM
